Assay results gathered from unrelated publications.
Each numbered part is a random draw from the data of one study; scales do not carry over between parts.
UniProt P35626, sequence (whole entry, looked up): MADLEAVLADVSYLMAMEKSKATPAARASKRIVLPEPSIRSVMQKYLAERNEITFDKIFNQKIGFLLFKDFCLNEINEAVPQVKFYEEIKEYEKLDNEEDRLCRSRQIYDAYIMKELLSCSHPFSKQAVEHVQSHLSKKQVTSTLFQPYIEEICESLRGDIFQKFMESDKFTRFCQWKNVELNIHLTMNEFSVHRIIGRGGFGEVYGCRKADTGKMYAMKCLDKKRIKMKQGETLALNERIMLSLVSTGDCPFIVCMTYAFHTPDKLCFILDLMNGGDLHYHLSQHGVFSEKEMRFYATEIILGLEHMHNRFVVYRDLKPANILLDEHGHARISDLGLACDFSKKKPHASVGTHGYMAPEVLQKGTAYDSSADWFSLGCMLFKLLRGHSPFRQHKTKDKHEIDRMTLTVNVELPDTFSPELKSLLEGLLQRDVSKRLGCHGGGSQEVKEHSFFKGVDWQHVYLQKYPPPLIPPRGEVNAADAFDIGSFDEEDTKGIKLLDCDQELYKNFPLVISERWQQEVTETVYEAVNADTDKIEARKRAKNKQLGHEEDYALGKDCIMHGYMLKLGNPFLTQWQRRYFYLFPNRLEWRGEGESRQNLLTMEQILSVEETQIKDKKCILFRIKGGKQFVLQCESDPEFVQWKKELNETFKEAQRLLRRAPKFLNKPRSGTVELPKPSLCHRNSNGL

Series 1
Target: Interferon regulatory factor 5, full length, phosphomimetic (IRF5, Homo sapiens, UniProt Q13568-2, residues 1-514, S451D/S453D/S456D/S462D)
Technique: protein-binding microarray
Form: double-stranded DNA, one strand shown
Medium: in vitro
Tested at: 940 nM top
Notes: 60-bp whole probe
With: salmon DNA 0.4 mg/ml
Relative to: random background probes
Direction: higher = stronger binding
Constant ends, left off below: GCCTAGCAC … GTCTTGATTCGCTTGACGCTGCTG
`CTCTGCTTGTGTCTGGGATTGTGCTAG`: “fitted relative affinity” -0.133 z-score.
`GACGATATCAGGTTCGAGACGTGCTAG`: “fitted relative affinity” -0.267 z-score.
For `TTGGGACTGGACTTTCGGTTAGTGCTA`, “fitted relative affinity” read 2.61 z-score.
For `GACGGTTTCGGTCTTGGGACGTGCTAG`, “fitted relative affinity” read 12.3 z-score.
`TACGAACTGGGGTTTCGAGACGTGCTA` — result for “fitted relative affinity”: 1.92 z-score.
Under “fitted relative affinity”, `GACGGTCTCCTTACCCTGACGTGCTAG` is recorded as 0.274 z-score.
`GACGGACTGGGTTTTCGGGACGTGCTA`: “fitted relative affinity” 0.253 z-score.
For `TTAGGTCTCGGTCTCGGTAAGTGCTAG`, “fitted relative affinity” read 5.54 z-score.

Series 2
Target: RNA binding protein fox-1 homolog 2, RRM domain, GST-SBP tag (RBFOX2, Homo sapiens, UniProt O43251-10, residues 100-194)
Technique: RNA Bind-n-Seq
Form: RNA
Medium: in vitro
Tested at: 365 nM
Notes: natural RNA segment, single round, ends assumed
Relative to: no-protein control
Direction: higher = stronger binding
Constant ends, left off below: GGGAGUUCUACAGUCCGACGAUC … UGGAAUUCUCGGGUGCCAA
Target sequence (chain): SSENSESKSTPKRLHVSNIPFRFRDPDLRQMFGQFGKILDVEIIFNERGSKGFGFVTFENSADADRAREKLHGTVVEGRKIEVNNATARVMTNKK
Under “RBNS enrichment (R)”, `GGCAGUGCCCACCAUGCACCCCUGAUGUUCGCCGUCUGGCGAGCCCUUAGCCUUGCUGUAGAGACUUCCGUCACCCUUGGUAGAGUUUAUUUUUUUGAUGGCUAAGAUAC` is recorded as 0.721.
For `CACUGUCCACGCACAUGGAGGAAAAGUUACUGCUGAAGACCCACUCGAUGGACGAUCUCAGCCUUGAGCCCCACGAGGAGCUUGCUUGCUGGGCUCAUCCUGUCUCCCCU`, “RBNS enrichment (R)” read 0.179.
Under “RBNS enrichment (R)”, `ACCUACCCCACAGCAGGUAGCCCAGCAGCAGUGAAGAUGCAGACUGAUACCACCUCCACCGCUGAGCAGUGACCUUCCUCACUUUCUCUUGUCCCAGCUUCUCCCCUGGG` is recorded as 0.387.
For `GGCUGGAAUCCCGCCCCUAUGGUACCCUCCAGGCCAGCGCCACCGCCUCCGACAGUGUCCUCGCUCUACCUCUGACCUCUCCGGAGGUUCCGCUGCCUCCAAGCCGGACU`, “RBNS enrichment (R)” read 0.443.
`CUCCUUUCCCCCCCGACCCUAUUCAGGUUUUAAGUCAAAAAUGUCGAUAUGUCAUUAUGCACUUUACAGAUGAGGGGAGGGGCCGCAGUGCGCAGAACCCACCCCACCCC`: “RBNS enrichment (R)” 0.305.
`AAUUCAUUGCCCUUGUGAUUUAGAAGAUUAUAACAGCUGUAUUUCAUAUUUGCCUCCUUAUAUAUAUCAAAGACCAAGGUAUUUCCUUCUGCUUCAAAAGAACAAAAUUG` — result for “RBNS enrichment (R)”: 0.428.
`GUAAGCUGUAGCUUUGAGUUGCAAAGAAGUCACAGGAAAGAACCAUUUGGGUUUCUGAAGUACAAGUAUUGAGCAACAUGAAGGGCAGUGUUGCCCAGCUCAGGGUGUCU` — result for “RBNS enrichment (R)”: 1.19.
For `ACCUCAGUCAAGACGGAAGUAAAGGCUCAGGAAACAGCCCACCACAGAGGCAGAUGCCAAACCAAAGACAGAUUGCUUAACCAACAGAUGGGCGCUGACCCCCUAUCCAG`, “RBNS enrichment (R)” read 0.319.

Series 3
Target: Interferon regulatory factor 1, DNA-binding domain (IRF1, Homo sapiens, UniProt P10914, residues 1-114)
Technique: protein-binding microarray
Form: hairpin DNA
Medium: in vitro
Tested at: not given
Notes: whole hairpin DNA, median over replicate spots
Relative to: not given
Direction: higher = stronger binding
Constant ends, left off below: GAGGCCCG … CGGGCCTCACAC
Construct (chain): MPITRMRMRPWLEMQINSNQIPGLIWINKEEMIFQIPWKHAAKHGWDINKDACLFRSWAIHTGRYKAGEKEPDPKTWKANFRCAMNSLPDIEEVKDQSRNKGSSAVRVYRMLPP
The median fluorescence of `TAAGTGAAACGCCTCCTGGCGTTTCACTTA` is reported as 633 a.u.
The median fluorescence of `AAAGCGCGACGCCTCCTGGCGTCGCGCTTT (5mC at 31)` is reported as 505 a.u.
`AAAGTGAAACGCCTCCTGGCGTTTCACTTT (5mC at 18)` has a median fluorescence of 2200 a.u.
With `AAAGTGCAACGCCTCCTGGCGTTGCACTTT` the median fluorescence was 547 a.u.
The median fluorescence of `AAAGCGACGCGCCTCCTGGCGCGTCGCTTT` is reported as 526 a.u.
The median fluorescence of `AAAGTCAAACGCCTCCTGGCGTTTGACTTT (5mC at 14)` is reported as 468 a.u.
`AAAGCGCGACGCCTCCTGGCGTCGCGCTTT` has a median fluorescence of 553 a.u.
With `AAAGTGCGACGCCTCCTGGCGTCGCACTTT (5mC at 31)` the median fluorescence was 514 a.u.

Other studies, line by line
`CCCCc1c(-c2ccc(O)cc2)[nH]c2nccnc12` gave a remaining activity of 96.2% (G protein-coupled receptor kinase 3 (GRK3, Homo sapiens, UniProt P35626); enzyme activity, inhibitor; 0.5 µM; relative to: control).
